Results from different studies.
Each line is one published result; not all experiments were run side by side. Values joined by “and” are separate records of one study, mostly repeats; a detail may differ. Numbers after ± are the reported error.
CA12: Carbonic anhydrase 12 (CA12, Homo sapiens, UniProt O43570)
PHO85: Negative regulator of the PHO system (PHO85, Candida albicans, UniProt Q9HGY5)
UniProt Q9HGY5, sequence (whole entry, looked up): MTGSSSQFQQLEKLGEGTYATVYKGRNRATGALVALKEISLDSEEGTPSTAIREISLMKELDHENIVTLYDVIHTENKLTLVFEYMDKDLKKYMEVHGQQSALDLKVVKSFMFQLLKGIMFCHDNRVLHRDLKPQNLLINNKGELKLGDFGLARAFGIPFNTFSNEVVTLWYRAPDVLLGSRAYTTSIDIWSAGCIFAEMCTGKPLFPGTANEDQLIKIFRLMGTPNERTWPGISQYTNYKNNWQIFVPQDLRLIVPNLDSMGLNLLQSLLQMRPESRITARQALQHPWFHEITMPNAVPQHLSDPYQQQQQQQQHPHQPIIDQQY
ZBTB11/CRBN: ZBTB11/CRBN (Homo sapiens, UniProt O95625+Q96SW2)
UniProt Q96SW2, sequence (whole entry, looked up): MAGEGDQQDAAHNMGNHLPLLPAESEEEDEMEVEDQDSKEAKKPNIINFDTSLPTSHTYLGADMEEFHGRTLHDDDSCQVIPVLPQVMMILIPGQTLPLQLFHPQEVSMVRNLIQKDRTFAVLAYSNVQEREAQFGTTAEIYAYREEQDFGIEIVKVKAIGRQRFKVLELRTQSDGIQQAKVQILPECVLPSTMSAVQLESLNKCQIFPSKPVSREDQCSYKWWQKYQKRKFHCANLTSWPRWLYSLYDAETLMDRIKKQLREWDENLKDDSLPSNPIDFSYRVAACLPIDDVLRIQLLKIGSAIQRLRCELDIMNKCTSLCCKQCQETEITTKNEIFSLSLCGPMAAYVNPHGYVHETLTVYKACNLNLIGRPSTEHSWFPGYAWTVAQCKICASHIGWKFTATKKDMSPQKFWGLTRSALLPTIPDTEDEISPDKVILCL
TOP2A: DNA topoisomerase 2-alpha (TOP2A, Homo sapiens, UniProt P11388)
UniProt P11388, sequence (whole entry, looked up): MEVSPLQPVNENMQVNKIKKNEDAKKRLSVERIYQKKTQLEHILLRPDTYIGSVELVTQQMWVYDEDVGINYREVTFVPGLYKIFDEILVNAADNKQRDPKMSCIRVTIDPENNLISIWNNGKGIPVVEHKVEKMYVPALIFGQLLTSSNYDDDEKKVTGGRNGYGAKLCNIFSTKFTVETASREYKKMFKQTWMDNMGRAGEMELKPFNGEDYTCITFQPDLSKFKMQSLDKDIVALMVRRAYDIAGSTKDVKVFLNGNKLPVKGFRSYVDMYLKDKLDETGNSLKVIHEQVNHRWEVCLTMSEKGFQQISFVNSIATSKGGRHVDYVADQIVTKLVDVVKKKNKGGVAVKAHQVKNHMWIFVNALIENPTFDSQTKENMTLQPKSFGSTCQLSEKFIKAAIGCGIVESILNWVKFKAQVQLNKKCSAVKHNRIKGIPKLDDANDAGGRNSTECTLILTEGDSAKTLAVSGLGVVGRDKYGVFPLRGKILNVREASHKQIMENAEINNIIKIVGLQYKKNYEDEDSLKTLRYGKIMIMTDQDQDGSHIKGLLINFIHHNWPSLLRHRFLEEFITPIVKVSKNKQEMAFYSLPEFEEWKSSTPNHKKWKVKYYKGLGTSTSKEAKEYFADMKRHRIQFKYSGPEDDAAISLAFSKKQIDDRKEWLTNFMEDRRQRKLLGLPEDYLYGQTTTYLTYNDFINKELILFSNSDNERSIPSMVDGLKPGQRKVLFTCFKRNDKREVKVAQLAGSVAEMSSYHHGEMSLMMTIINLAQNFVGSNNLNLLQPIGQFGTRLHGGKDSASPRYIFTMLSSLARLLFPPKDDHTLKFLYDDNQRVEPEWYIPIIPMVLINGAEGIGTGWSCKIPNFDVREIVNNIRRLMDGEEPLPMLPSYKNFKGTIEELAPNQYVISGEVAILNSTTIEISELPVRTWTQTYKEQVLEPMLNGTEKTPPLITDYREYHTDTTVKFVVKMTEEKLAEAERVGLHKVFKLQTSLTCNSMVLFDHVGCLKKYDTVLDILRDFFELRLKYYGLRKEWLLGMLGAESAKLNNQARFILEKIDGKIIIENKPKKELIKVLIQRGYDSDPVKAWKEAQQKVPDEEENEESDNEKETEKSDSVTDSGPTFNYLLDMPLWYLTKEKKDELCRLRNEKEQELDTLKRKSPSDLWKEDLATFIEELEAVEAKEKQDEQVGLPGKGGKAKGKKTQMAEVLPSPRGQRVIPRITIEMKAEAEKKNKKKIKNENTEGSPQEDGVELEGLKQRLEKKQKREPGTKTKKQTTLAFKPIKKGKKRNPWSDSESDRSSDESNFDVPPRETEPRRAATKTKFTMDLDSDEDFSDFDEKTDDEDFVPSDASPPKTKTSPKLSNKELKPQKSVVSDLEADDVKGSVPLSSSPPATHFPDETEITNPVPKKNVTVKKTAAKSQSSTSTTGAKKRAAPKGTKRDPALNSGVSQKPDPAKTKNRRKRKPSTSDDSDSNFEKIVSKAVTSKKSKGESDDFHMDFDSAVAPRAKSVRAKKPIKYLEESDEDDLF
UniProt P28843, sequence (whole entry, looked up): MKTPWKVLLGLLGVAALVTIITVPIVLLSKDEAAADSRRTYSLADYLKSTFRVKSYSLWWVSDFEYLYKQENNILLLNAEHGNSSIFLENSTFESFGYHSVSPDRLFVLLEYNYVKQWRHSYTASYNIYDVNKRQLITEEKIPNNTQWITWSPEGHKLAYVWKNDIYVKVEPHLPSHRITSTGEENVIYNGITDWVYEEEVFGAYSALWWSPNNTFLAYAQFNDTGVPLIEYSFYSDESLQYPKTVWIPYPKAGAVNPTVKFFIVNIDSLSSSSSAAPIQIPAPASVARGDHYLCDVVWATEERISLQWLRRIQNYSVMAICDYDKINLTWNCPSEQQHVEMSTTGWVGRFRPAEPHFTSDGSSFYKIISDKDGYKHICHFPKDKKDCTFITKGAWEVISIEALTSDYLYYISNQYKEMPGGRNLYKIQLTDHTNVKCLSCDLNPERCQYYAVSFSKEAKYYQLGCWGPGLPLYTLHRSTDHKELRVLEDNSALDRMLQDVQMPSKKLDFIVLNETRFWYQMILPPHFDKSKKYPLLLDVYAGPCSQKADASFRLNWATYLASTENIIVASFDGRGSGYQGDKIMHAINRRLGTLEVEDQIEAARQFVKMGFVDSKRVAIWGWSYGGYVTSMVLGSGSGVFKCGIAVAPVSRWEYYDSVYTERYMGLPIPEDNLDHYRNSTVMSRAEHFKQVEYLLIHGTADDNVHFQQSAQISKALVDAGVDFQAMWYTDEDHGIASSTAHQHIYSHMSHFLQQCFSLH
UniProt P51575, sequence (whole entry, unmodified, looked up): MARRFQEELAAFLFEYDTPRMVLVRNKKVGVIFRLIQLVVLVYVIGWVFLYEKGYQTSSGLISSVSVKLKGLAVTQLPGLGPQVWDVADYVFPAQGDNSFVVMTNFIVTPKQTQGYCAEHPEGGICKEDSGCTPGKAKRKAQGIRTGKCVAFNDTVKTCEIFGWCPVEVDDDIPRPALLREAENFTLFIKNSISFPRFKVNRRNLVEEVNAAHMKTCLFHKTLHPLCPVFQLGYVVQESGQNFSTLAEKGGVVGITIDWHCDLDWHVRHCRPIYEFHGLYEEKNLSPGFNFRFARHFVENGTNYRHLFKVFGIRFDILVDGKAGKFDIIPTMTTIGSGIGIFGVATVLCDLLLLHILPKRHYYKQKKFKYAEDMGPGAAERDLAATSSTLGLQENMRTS
UniProt Q16774, sequence (whole entry, looked up): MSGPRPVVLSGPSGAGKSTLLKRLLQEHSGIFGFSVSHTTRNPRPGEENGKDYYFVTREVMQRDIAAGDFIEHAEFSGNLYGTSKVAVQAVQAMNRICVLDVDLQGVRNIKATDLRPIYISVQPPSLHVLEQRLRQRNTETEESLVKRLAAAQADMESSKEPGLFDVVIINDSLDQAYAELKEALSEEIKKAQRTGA
UniProt P31645, sequence (whole entry, looked up): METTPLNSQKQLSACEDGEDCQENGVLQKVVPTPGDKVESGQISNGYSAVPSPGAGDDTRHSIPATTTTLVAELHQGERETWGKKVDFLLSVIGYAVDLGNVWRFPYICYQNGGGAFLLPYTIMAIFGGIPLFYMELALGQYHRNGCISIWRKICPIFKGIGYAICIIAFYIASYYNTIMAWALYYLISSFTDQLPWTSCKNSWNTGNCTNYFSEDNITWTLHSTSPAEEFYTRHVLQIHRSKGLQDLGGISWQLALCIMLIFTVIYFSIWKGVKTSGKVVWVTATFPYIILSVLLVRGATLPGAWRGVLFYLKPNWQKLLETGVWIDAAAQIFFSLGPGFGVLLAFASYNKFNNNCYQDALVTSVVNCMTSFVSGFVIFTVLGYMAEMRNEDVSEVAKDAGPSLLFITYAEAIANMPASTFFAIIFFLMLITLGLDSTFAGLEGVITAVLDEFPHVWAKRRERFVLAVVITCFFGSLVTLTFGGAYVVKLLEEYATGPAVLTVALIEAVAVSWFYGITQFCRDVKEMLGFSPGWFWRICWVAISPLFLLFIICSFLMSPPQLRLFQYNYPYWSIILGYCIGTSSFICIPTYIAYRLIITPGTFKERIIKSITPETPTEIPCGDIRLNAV
UniProt Q86TG7, sequence (whole entry, looked up): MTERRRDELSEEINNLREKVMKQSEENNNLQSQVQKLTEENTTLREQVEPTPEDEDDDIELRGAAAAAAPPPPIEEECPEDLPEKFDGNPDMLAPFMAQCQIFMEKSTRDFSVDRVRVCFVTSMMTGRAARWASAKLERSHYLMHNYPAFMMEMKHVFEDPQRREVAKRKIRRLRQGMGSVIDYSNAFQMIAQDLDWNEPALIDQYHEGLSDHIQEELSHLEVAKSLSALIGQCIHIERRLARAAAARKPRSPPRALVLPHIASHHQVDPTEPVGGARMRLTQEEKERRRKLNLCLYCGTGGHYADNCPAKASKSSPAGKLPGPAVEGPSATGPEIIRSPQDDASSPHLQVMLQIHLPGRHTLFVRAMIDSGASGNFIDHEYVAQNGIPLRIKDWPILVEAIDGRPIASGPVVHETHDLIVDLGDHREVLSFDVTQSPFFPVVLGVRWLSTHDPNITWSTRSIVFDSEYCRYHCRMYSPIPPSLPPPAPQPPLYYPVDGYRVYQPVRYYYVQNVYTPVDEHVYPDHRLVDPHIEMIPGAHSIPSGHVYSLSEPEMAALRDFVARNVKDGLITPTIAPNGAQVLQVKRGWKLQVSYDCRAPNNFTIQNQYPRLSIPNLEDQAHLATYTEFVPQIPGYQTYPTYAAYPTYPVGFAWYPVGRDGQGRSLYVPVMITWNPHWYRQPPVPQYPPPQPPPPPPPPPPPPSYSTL

For `Cc1cn([C@H]2C[C@H](N=[N+]=[N-])[C@@H](CO)O2)c(=O)[nH]c1=O`, the selectivity ratio was 1.16 (CA12; baseline: Ki hCA II over Ki hCA XII).
With `CC(C)OCCn1c(=S)[nH]c(=O)c2[nH]ccc21` the H2O2 concentration was -34.5 µM (Myeloperoxidase (MPO, Homo sapiens, UniProt P05164); H2O2 consumption, inhibitor, H2O2 electrode; 10 µM, 0 s).
`C=CC(=O)N1CCC(COCC(=O)N2CCN(c3nc(-c4cnc(N)nc4C(F)F)nc(N4CCOC[C@@H]4C)n3)CC2)CC1` gave a remaining binding of 100% (Dual specificity protein kinase TTK (TTK, Homo sapiens, UniProt P33981); KINOMEscan; 1 µM).
The Ki ratio of `CCOC(=O)[C@](CC)(CCCS(=O)(=O)CCOCCOCCNC(=O)OC(C)(C)C)NC(=O)c1ccc(C2CC2)c(Cc2ccc(F)cc2)n1` is reported as 4 (Cannabinoid receptor 2 (CNR2, Homo sapiens, UniProt P34972); radioligand binding; baseline: CB1 over CB2 (human)).
Under “thermal stability ratio”, `O=C(COP(=O)(O)O)[C@@H](O)[C@H](O)[C@H](O)COP(=O)(O)O` is recorded as 0.389 and 0.923 and 0.7 (Retrotransposon-derived protein PEG10 (PEG10, Homo sapiens, UniProt Q86TG7); thermal proteome profiling, measured: PEG10; HepG2 cell lysate; concentration not given, 57 over 37 °C; baseline: compound over control).
The activation of `CN1CCN(c2cc(-c3ccncc3)c(-c3ccc4ccccc4c3)nn2)CC1` is reported as -2.1% (C5a anaphylatoxin chemotactic receptor 1 (C5AR1, Homo sapiens, UniProt P21730); agonist, FLIPR; 12.5 µM).
`c1coc(-c2n[nH]cc2-c2ccnc3ccccc23)c1` — result for “log2 fold change”: -0.22 (PHO85; kinase binding, MIB/MS competition; Candida albicans lysate; 1 µM; baseline: DMSO, negative = stronger binding).
`O=C(CCCc1ccccc1)C(=O)NCCc1ccc(Oc2ccc(C(F)(F)F)cn2)cc1` — result for “probe-enriched protein abundance”: 17000 a.u. and 16900 a.u. and 17200 a.u. (Dipeptidyl peptidase 4 (Dpp4, Mus musculus, UniProt P28843); inhibitor; mouse, WAT cytosol proteome; 10 µM; baseline: DMSO, lower = stronger inhibition).
The association constant of `Nc1nc2c(ncn2[C@@H]2O[C@@H]3COP(=O)(O)O[C@H]4[C@@H](O)[C@H](n5cnc6c(=O)[nH]c(N)nc65)O[C@@H]4COP(=O)(O)O[C@H]3[C@H]2O)c(=O)[nH]1` is reported as 29300 ± 4870 M⁻¹ (Cell cycle histidine kinase CckA, DHp-CA domains (Caulobacter vibrioides, UniProt Q9X688); binding, ITC; together with: ADP 5 mM).
With `CC(=O)N[C@H](C(=O)N1C[C@H](O)C[C@H]1C(=O)NCc1ccc(-c2scnc2C)cc1)C(C)(C)SCCCCCCNC(=O)C[C@@H]1N=C(c2ccc(Cl)cc2)c2c(sc(C)c2C)-n2c(C)nnc21` the cooperativity was 4.1 (BRD2/VHL, BD2; with VCB (Homo sapiens, UniProt P25440+P40337); ITC; 25 °C, PROTAC:Brd2^BD2; baseline: Kd binary over Kd ternary).
`CC1=C(Nc2cccc(C3(NCCc4ccc(C(F)(F)F)c(Cl)c4)CCC3)c2)C(=O)N(C2CCC(=O)NC2=O)C1=O` (stereo not shown) gave a Dmax of 50% (ZBTB11/CRBN; protein degradation, degrader, HiBiT luminescence; MOLT-4).
`CC[C@@H]1[C@H](F)C(=O)N[C@@H]1COc1nccc2cc(C(N)=O)c(OC)cc12` gave an inhibition of 16.2% (Cyclin-G-associated kinase (GAK, Homo sapiens, UniProt O14976); ATP-site probe binding, ActivX profiling; THP-1 cell lysate; 0.01 mM, Lys2 site).
`Nc1ncnc2c1ncn2[C@@H]1O[C@H](COP(=O)(O)CP(=O)(O)OP(=O)(O)O)[C@@H](O)[C@H]1O` gave a specific binding of 1090 CCPM and 1010 CCPM and 1520 CCPM (P2X purinoceptor 1 (P2RX1, Homo sapiens, UniProt P51575, E122A); saturation binding; HEK293; 130 nM).
`N#CSCCCCOc1ccc2c(-c3ccccc3)cc(=O)oc2c1` gave a selectivity ratio of greater than 427 (CA12; stopped-flow CO2 hydration; baseline: Ki CA I over Ki CA XII).
`N#Cc1ccc2[nH]cc(CCCCN3CCN(c4ccc5oc(C(N)=O)cc5c4)CC3)c2c1` gave a Hill coefficient of 1.42 and 1.4 (Sodium-dependent serotonin transporter (SLC6A4, Homo sapiens, UniProt P31645); serotonin uptake, inhibitor; COS-7 expressing SLC6A4; together with: [3H]5-HT).
The substrate conversion of `O=C(O)C1=CC(=C(c2ccc(O)c(C(=O)O)c2)c2ccc(O)c(C(=O)O)c2)C=CC1=O` is reported as 2% and 1% (Flap endonuclease 1 (Homo sapiens, UniProt P39748); gel radiotracer; 0.1 µM, 5 min, room temperature, together with: single-flap substrate 50 nM).
`NC(N)=NCCC[C@H](N)C(=O)Nc1ccc2ccccc2c1` has a kcat of 30.8 s⁻¹ (rat neuron-specific aminopeptidase; substrate; MW 110 kDa).
`NCCS(=O)(=O)O`: “normalised MST signal” 0.0116 (Sodium- and chloride-dependent taurine transporter (SLC6A6, Homo sapiens, UniProt P31641, Y138A); binding, microscale thermophoresis; 1 mM, room temperature, together with: 50 nM labelled protein; higher = more binding).
For `C[C@H](CCC(C)(C)O)[C@H]1CC[C@H]2[C@@H]3CC=C4C[C@@](C)(O)CC[C@]4(C)[C@H]3CC[C@]12C`, the Emax was 244% (Glutamate NMDA receptor; GRIN1/GRIN2B (GRIN1/GRIN2B, Homo sapiens, UniProt Q05586+Q13224); ion current, positive modulator, automated patch clamp; HEK293 (stable line); together with: glutamate 0.8 µM and glycine; baseline: current without compound).
`CCCCc1cn2c(N)nc3ccccc3c2n1`: EC50 “inactive” (Toll-like receptor 7 (TLR7, Homo sapiens, UniProt Q9NYK1); reporter gene, agonist, NF-κB reporter; HEK-Blue TLR7).
For `O=c1nc(SCc2cc(F)cc(C(F)(F)F)c2)nc(SCc2ccc3nc(Cl)ccc3c2)[nH]1`, “mean decatenated DNA” read 84.9% (TOP2A; decatenation; 7.8 µM).
`CCC(C)(NCCc1cccc(C(F)(F)F)c1Cl)c1cccc(NC2=CC(=O)N(C3CCC(=O)NC3=O)C2=O)c1` (stereo not shown) gave a Dmax of 66% (ZBTB11/CRBN; protein degradation, degrader, HiBiT luminescence; MOLT-4).
`N#Cc1ccc2c(-c3ccncc3)c(-c3ccc(F)cc3)nn2c1` — result for “log2 fold change”: 0.219 (PHO85; kinase binding, competitor, MIB/MS competition, measured: PHO85; Candida albicans cell lysate; 100 nM; baseline: DMSO).
`CCCCC[C@H](O)/C=C/[C@H]1[C@H](O)CC(=O)[C@@H]1C/C=C\CCCC(=O)O` has an Emax of 84.1 ± 7.38% (Prostaglandin E2 receptor EP1 subtype (PTGER1, Homo sapiens, UniProt P34995, H88A); IP1 accumulation, agonist; AD293; 1 h, EP1 H88A mutant).
For `COc1cc(CC(=O)O)ccc1O`, “z-scored log2 fold change” read -0.502 (binding, equilibrium dialysis LC-MS; 5 µM, thermostabilized A2AR-BRIL construct; baseline: no-protein control, direction not given).
The kcat of `OC[C@H]1OC(O)[C@H](O)[C@@H](O)[C@@H]1O` (stereo partly shown) is reported as 64 ± 1 s⁻¹ (Hexokinase-3 (HK3, Homo sapiens, UniProt P52790, A499V); substrate inhibition; mutant A499V, complete substrate inhibition model, together with: ATP 20 mM).
The remaining activity of `O=C(O)c1ccc(Nc2ncc3c(n2)-c2ccc(Cl)cc2C(c2c(F)cccc2F)=NC3)cc1` is reported as 100% (human PKA(h); kinase activity; 1 µM).
`O=S(=O)(O)O` has a reaction velocity of 0.0568 µM/s and 0.0628 µM/s and 0.059 µM/s (GUK1 (Homo sapiens, UniProt Q16774); enzyme activity, NADH-coupled; 10 mM, together with: ATP 250 µM).
`O=c1nc(SCc2cc(F)cc(C(F)(F)F)c2)nc(SCc2ccc3sccc3c2)[nH]1`: “ATP hydrolysis rate” 0.871 µM/min and 0.218 µM/min (TOP2A; ATPase activity; 15.6 µM, together with: ATP 0.25 mM).
For `CC(NC(=O)CCCc1ccc2ccc3cccc4ccc1c2c34)C(=O)NO` (stereo not shown), the binding stoichiometry was 0.95 (Histone deacetylase 8 (HDAC8, Homo sapiens, UniProt Q9BY41); ITC; Tris-HCl buffer; concentration not given, 293 K).
Under “normalised MST signal”, `NCCCCC(=O)O` is recorded as -0.0576 (Sodium- and chloride-dependent taurine transporter (SLC6A6, Homo sapiens, UniProt P31641, G62A); binding, microscale thermophoresis; 1.95 µM, room temperature, together with: 50 nM labelled protein; higher = more binding).
Under “z-scored log2 fold change”, `N[C@@H](CO)C(=O)O` is recorded as 0.282 (binding, equilibrium dialysis LC-MS; 5 µM, thermostabilized A2AR-BRIL construct; baseline: no-protein control, direction not given).
For `CCC(=O)NS(=O)(=O)c1ccc(-c2c(-c3ccccc3)noc2C)cc1`, the activation was 0.64 fold (Nuclear receptor subfamily 1 group D member 1 (NR1D1, Homo sapiens, UniProt P20393); reporter gene, Gal4 hybrid reporter; 50 µM; baseline: vehicle).
`NC(=O)c1ccc[n+]([C@@H]2O[C@H](COP(=O)(O)OP(=O)(O)OC[C@H]3O[C@@H](n4cnc5c(N)ncnc54)[C@H](O)[C@@H]3O)[C@@H](O)[C@H]2O)c1` has a Km of 29 ± 1 µM (ALDH-137; enzyme activity, cofactor, NADH formation; apparent Km, together with: hexanal).

Repeated from above:
The substrate conversion of `O=C(O)C1=CC(=C(c2ccc(O)c(C(=O)O)c2)c2ccc(O)c(C(=O)O)c2)C=CC1=O` is reported as 2% and 1% (Flap endonuclease 1 (Homo sapiens, UniProt P39748); gel radiotracer; 0.1 µM, 5 min, room temperature, together with: single-flap substrate 50 nM).
`CCCCC[C@H](O)/C=C/[C@H]1[C@H](O)CC(=O)[C@@H]1C/C=C\CCCC(=O)O` has an Emax of 84.1 ± 7.38% (Prostaglandin E2 receptor EP1 subtype (PTGER1, Homo sapiens, UniProt P34995, H88A); IP1 accumulation, agonist; AD293; 1 h, EP1 H88A mutant).
